Published values from different studies.
Protocols differ between the studies behind these lines. Values joined by “and” are separate records of one study, mostly repeats; a detail may differ. Numbers after ± are the reported error.

Substance = Cn1cnc(Cn2c(=O)[nH]/c(=N\c3cc4cn(C)nc4cc3Cl)n(Cc3cc(F)c(F)cc3F)c2=O)n1; test system = human, severe renal impairment, plasma; conditions = oral, 375 mg single dose; quantity = terminal half-life; value = 70.7 h
Substance = CNC(=O)[C@@H](NC(=O)[C@H](CC(C)C)[C@H](O)C(=O)NO)C(C)(C)C; tested on = Daboia russelii venom proteases (SVMP); test = protease activity, inhibitor; test system = KL population; conditions = 0.01 µM, with: azocasein substrate; how to read = reference: venom alone; quantity = remaining activity; value = 95.7% and 94% and 94.2%
Substance = CCCN1CCN(CCCNC(=O)c2cc3c(Cl)nc4ccccc4c3s2)CC1; tested on = SARS-CoV-2; test = cytopathic effect; test system = USA_WA1/2020; quantity = AC50; value = 10 µM
Substance = CCc1c(C(=O)C(N)=O)c2c(OCC(=O)O)cccc2n1Cc1ccccc1; tested on = C2C12; conditions = 10 µM, with: GA venom; how to read = reference: venom alone; quantity = viability difference; value = 17%
Substance = Nc1ncnc2c([C@@H]3N[C@H](CO)[C@@H](O)[C@H]3O)c[nH]c12; tested on = Marburg virus; test = viral replication; test system = HeLa, Musoke; conditions = 1.6 µM; quantity = inhibition; value = 18%
Substance = COc1ccc2c(Sc3ccccc3)c(C(=O)NCCCN3CCCCC3)[nH]c2c1; tested on = SARS-CoV-2; test = cytopathic effect; test system = USA_WA1/2020; conditions = retest, 8-point, duplicates; quantity = maximum response; value = 76%
Substance = LYDKLVSSF; test = AIM; test system = peptide, CD8+ T cells from PBMC, human donors; conditions = dose not given; quantity = response magnitude per positive donor; value = 112
Substance = CC[C@H](C)[C@H](NC(=O)[C@H](CC(C)C)NC(=O)[C@H](Cc1c[nH]c2ccccc12)NC(=O)[C@H](CCC(N)=O)NC(=O)[C@@H](NC(=O)[C@H](Cc1ccccc1)NC(=O)[C@H](C)NC(=O)[C@H](CCCCNC(=O)COCCOCCNC(=O)COCCOCCNC(=O)CC[C@H](NC(=O)CCCCCCCCCCCCCCCCCCC(=O)O)C(=O)O)NC(=O)[C@H](CCC(N)=O)NC(=O)[C@H](C)NC(=O)[C@@H](NC(=O)[C@H](CCCCN)NC(=O)[C@H](CC(=O)O)NC(=O)[C@H](CC(C)C)NC(=O)C(C)(C)NC(=O)[C@@H](NC(=O)[C@H](CO)NC(=O)[C@H](Cc1ccc(O)cc1)NC(=O)[C@H](CC(=O)O)NC(=O)[C@H](CO)NC(=O)[C@@H](NC(=O)[C@H](Cc1ccccc1)NC(=O)[C@@H](NC(=O)CNC(=O)[C@H](CCC(=O)O)NC(=O)C(C)(C)NC(=O)[C@@H](N)Cc1ccc(O)cc1)[C@@H](C)O)[C@@H](C)O)[C@@H](C)CC)[C@@H](C)CC)C(C)C)C(=O)N[C@@H](C)C(=O)NCC(=O)NCC(=O)N1CCC[C@H]1C(=O)N[C@@H](CO)C(=O)N[C@@H](CO)C(=O)NCC(=O)N[C@@H](C)C(=O)N1CCC[C@H]1C(=O)N1CCC[C@H]1C(=O)N1CCC[C@H]1C(=O)N[C@@H](CO)C(N)=O; test system = healthy human subjects, serum; conditions = 1.5 mg multiple ascending, day 29; quantity = total ALT; value = 28.3 ± 10 U/L
Substance = VPGLPGTILRTTNGD; tested on = human CD4 T cells; test = AIM; test system = peptide; quantity = responding donors; value = 9%
Substance = O=C(O[C@@H]1Cc2c(O)cc(O)cc2O[C@@H]1c1cc(O)c(O)c(O)c1)c1cc(O)c(O)c(O)c1; tested on = Spike glycoprotein (Severe acute respiratory syndrome coronavirus 2, UniProt P0DTC2); test = binding; quantity = Kd; value = 1.43 µM
Substance = CC(C)(C)[C@H](NC(=O)C(F)(F)F)C(=O)N1C[C@H]2[C@@H]([C@H]1C(=O)N[C@H](C#N)C[C@@H]1CCNC1=O)C2(C)C; test system = human; conditions = 500 mg single dose; quantity = Vz/F; value = 2440 L
Substance = ITLKKRWQL; test = AIM; test system = peptide, CD8+ T cells from PBMC, human donors; conditions = HLA-B*08:01 restricted, unit not given; how to read = reference: positive over tested donors; quantity = frequency of responding donors; value = 33
Substance = Cc1ccc(-c2cccc(CN3CCCC(NC(=O)c4c(C)noc4C)C3)c2)cc1Cl (stereo not shown); tested on = SARS-CoV-2; test = cytopathic effect; test system = USA_WA1/2020; conditions = round 1, 5-point; quantity = efficacy; value = 101%

Excerpt of the above:
Substance = CNC(=O)[C@@H](NC(=O)[C@H](CC(C)C)[C@H](O)C(=O)NO)C(C)(C)C; tested on = Daboia russelii venom proteases (SVMP); test = protease activity, inhibitor; test system = KL population; conditions = 0.01 µM, with: azocasein substrate; how to read = reference: venom alone; quantity = remaining activity; value = 95.7% and 94% and 94.2%
Substance = COc1ccc2c(Sc3ccccc3)c(C(=O)NCCCN3CCCCC3)[nH]c2c1; tested on = SARS-CoV-2; test = cytopathic effect; test system = USA_WA1/2020; conditions = retest, 8-point, duplicates; quantity = maximum response; value = 76%
